Assay results of several laboratories.
Compare with care: the assays were run in different laboratories. ± gives the spread as reported.

| SMILES | assay | system | setting | endpoint | result |
| --- | --- | --- | --- | --- | --- |
| COc1ccc2cc([C@H](C)C(=O)N[C@H](Cc3ccccc3)C(=O)N[C@H](Cc3ccccc3)C(=O)N[C@H](CCCCN)C(=O)N[C@H](Cc3ccc(O)cc3)C(=O)O)ccc2c1 | TEM | hydrogel 0.8 wt% | – | nanofiber width | 10 ± 2 nm |
| CC(=O)N[C@@H](CCCCNC(=S)Nc1ccc(CC2CN(CC(=O)O)CCN(CC(=O)O)CCN2CC(=O)O)cc1)C(=O)N1CCC[C@H]1C(=O)N(C)[C@@H](CCCNC(=N)N)C(=O)N[C@@H](CCCNC(=N)N)C(=O)N1CCC[C@H]1C(=O)N[C@@H](Cc1ccc(O)cc1)C(=O)N[C@H](C(=O)N[C@@H](CC(C)C)C(=O)O)C(C)(C)C (some centres unmarked) [copper-64 labelled] | radio-HPLC | PBS | 4 h, pH 7.5 | radiochemical purity | 93.7% |
| Cc1cc(-c2ccc(NC(=O)[C@H](CCCCNC(=O)CCOCCOCCC(=O)N[C@H](Cc3ccccc3)C(=O)N[C@H]3CSSC[C@@H](C(=O)N[C@H](C(=O)O)[C@@H](C)O)NC(=O)[C@H]([C@@H](C)O)NC(=O)[C@H](CCCCN)NC(=O)[C@@H](Cc4c[nH]c5ccccc45)NC(=O)[C@H](Cc4ccc(O)cc4)NC3=O)NC(=O)CN3CCN(CC(=O)O)CCN(CC(=O)O)CCN(CC(=O)O)CC3)c(C)c2)ccc1N=Nc1ccc2c(S(=O)(=O)O)cc(S(=O)(=O)O)c(N)c2c1O [gallium-68 labelled] | radio-HPLC | saline, glutathione solution, urine | 2 h | radiochemical purity | > 99% |
| CN1C(=O)[C@@H](Cc2ccc(O)cc2)NC(=O)CNC(=O)[C@H](Cc2ccc3ccccc3c2)NC(=O)[C@H](CCCNC(=N)N)NC(=O)[C@H]1CCCNC(=O)c1ccc(CNC(=O)CN2CCN(CC(=O)O)CCN(CC(=O)O)CCN(CC(=O)O)CC2)cc1 [gallium-68 labelled] | radio-TLC | human serum | 1 h, 37 °C | radiochemical purity | 99.01 ± 0.26% |
| CCCC[C@H](NC(=O)CNC(=O)CNC(=O)CN1CCN(CC(=O)O)CCN(CC(=O)O)CCN(CC(=O)O)CC1)C(=O)N[C@H]1CC(=O)NCCCC[C@@H](C(N)=O)NC(=O)[C@H](Cc2c[nH]c3ccccc23)NC(=O)[C@H](CCCNC(=N)N)NC(=O)[C@@H](Cc2ccccc2)NC(=O)[C@H](Cc2c[nH]cn2)NC1=O [lutetium-177 labelled] | – | C57 mouse, female, heart | intravenous, 0.037 MBq, 2 h | tissue uptake | 0.16 ± 0.07 %ID/g |
| N=C(N)NCCC[C@@H]1NC(=O)[C@H](CCCCNC(=O)CNC(=O)CNC(=O)CNC(=O)CC[C@H](NC(=O)CNC(=O)CNC(=O)CNC(=O)CC[C@H](NC(=O)CN2CCN(CC(=O)O)CCN(CC(=O)O)CCN(CC(=O)O)CC2)C(=O)NCC(=O)NCC(=O)NCC(=O)N[C@@H](CCC(=O)NCC(=O)NCC(=O)NCC(=O)NCCCC[C@@H]2NC(=O)[C@@H](Cc3ccccc3)NC(=O)[C@H](CC(=O)O)NC(=O)CNC(=O)[C@H](CCCNC(=N)N)NC2=O)C(=O)NCC(=O)NCC(=O)NCC(=O)NCCCC[C@@H]2NC(=O)[C@@H](Cc3ccccc3)NC(=O)[C@H](CC(=O)O)NC(=O)CNC(=O)[C@H](CCCNC(=N)N)NC2=O)C(=O)NCC(=O)NCC(=O)NCC(=O)NCCCC[C@@H]2NC(=O)[C@@H](Cc3ccccc3)NC(=O)[C@H](CC(=O)O)NC(=O)CNC(=O)[C@H](CCCNC(=N)N)NC2=O)NC(=O)[C@@H](Cc2ccccc2)NC(=O)[C@H](CC(=O)O)NC(=O)CNC1=O [indium-111 labelled] | – | female athymic nu/nu mice, blood | intravenous, 4 h | tissue uptake | 0.05 %ID/g |
| CCCC[C@H](NC(=O)CCCCCCCNC(=O)CN1CCN(CC(=O)O)CCN(CC(=O)O)CC1)C(=O)N[C@H]1CC(=O)NCCCC[C@@H](C(N)=O)NC(=O)[C@H](Cc2c[nH]c3ccccc23)NC(=O)[C@H](CCCNC(=N)N)NC(=O)[C@@H](Cc2ccccc2)NC(=O)[C@H](Cc2c[nH]cn2)NC1=O [copper-64 labelled] | – | C57 mice, stomach | intravenous, 0.37 MBq, 2 h | tissue uptake | 1.69 ± 0.57 %ID/g |
| N=C(N)NCCC[C@@H]1NC(=O)[C@H](CCCCNC(=O)CNC(=O)CNC(=O)CNC(=O)CC[C@H](NC(=O)CNC(=O)CNC(=O)CNC(=O)CN2CCN(CC(=O)O)CCN(CC(=O)O)CCN(CC(=O)O)CC2)C(=O)NCC(=O)NCC(=O)NCC(=O)NCCCC[C@@H]2NC(=O)[C@@H](Cc3ccccc3)NC(=O)[C@H](CC(=O)O)NC(=O)CNC(=O)[C@H](CCCNC(=N)N)NC2=O)NC(=O)[C@@H](Cc2ccccc2)NC(=O)[C@H](CC(=O)O)NC(=O)CNC1=O [indium-111 labelled] | – | female athymic nu/nu mice, spleen | intravenous, 111 kBq, 0.5 h | tissue uptake | 1.63 ± 0.08 %ID/g |
| C[C@H](NC(=O)CNC(=O)[C@H](CCC(=O)O)NC(=O)[C@H](CCC(=O)O)NC(=O)[C@H](CC(=O)O)NC(=O)[C@@H]1CCCN1C(=O)[C@H](Cc1ccccc1)NC(=O)[C@H](CS)NC(=O)[C@H](Cc1ccc(O)cc1)NC(=O)CCCNC(=O)CNC(=O)CNC(=O)[C@@H](C)NC(=O)CN)C(=O)N[C@@H](CS)C(=O)N[C@@H](Cc1ccc(O)cc1)C(N)=O [technetium-99m labelled] | paper chromatography | sealed vial | 6 h, room temperature | radiochemical purity | 93.25 ± 0.06% |
| N=C(N)NCCC[C@@H]1NC(=O)[C@H](CCCCNC(=O)CC[C@H](NC(=O)CC[C@H](NC(=O)CN2CCN(CC(=O)O)CCN(CC(=O)O)CCN(CC(=O)O)CC2)C(=O)N[C@@H](CCC(=O)NCCCC[C@@H]2NC(=O)[C@@H](Cc3ccccc3)NC(=O)[C@H](CC(=O)O)NC(=O)CNC(=O)[C@H](CCCNC(=N)N)NC2=O)C(=O)NCCCC[C@@H]2NC(=O)[C@@H](Cc3ccccc3)NC(=O)[C@H](CC(=O)O)NC(=O)CNC(=O)[C@H](CCCNC(=N)N)NC2=O)C(=O)NCCCC[C@@H]2NC(=O)[C@@H](Cc3ccccc3)NC(=O)[C@H](CC(=O)O)NC(=O)CNC(=O)[C@H](CCCNC(=N)N)NC2=O)NC(=O)[C@@H](Cc2ccccc2)NC(=O)[C@H](CC(=O)O)NC(=O)CNC1=O [indium-111 labelled] | – | female athymic nu/nu mice, U87MG tumour | intravenous, 111 kBq, 4 h | tissue uptake | 7.32 ± 2.66 %ID/g |
| CCCC[C@H](NC(=O)CNC(=O)CNC(=O)CN1CCN(CC(=O)O)CCN(CC(=O)O)CC1)C(=O)N[C@H]1CC(=O)NCCCC[C@@H](C(N)=O)NC(=O)[C@H](Cc2c[nH]c3ccccc23)NC(=O)[C@H](CCCNC(=N)N)NC(=O)[C@@H](Cc2ccccc2)NC(=O)[C@H](Cc2c[nH]cn2)NC1=O [technetium-99m labelled] | – | C57 mouse, brain | iv, 0.037 MBq, 4 h | tissue uptake | 0.01 ± 0.01 %ID/g |

Excerpt of the above:
| SMILES | assay | system | setting | endpoint | result |
| --- | --- | --- | --- | --- | --- |
| N=C(N)NCCC[C@@H]1NC(=O)[C@H](CCCCNC(=O)CNC(=O)CNC(=O)CNC(=O)CC[C@H](NC(=O)CNC(=O)CNC(=O)CNC(=O)CN2CCN(CC(=O)O)CCN(CC(=O)O)CCN(CC(=O)O)CC2)C(=O)NCC(=O)NCC(=O)NCC(=O)NCCCC[C@@H]2NC(=O)[C@@H](Cc3ccccc3)NC(=O)[C@H](CC(=O)O)NC(=O)CNC(=O)[C@H](CCCNC(=N)N)NC2=O)NC(=O)[C@@H](Cc2ccccc2)NC(=O)[C@H](CC(=O)O)NC(=O)CNC1=O [indium-111 labelled] | – | female athymic nu/nu mice, spleen | intravenous, 111 kBq, 0.5 h | tissue uptake | 1.63 ± 0.08 %ID/g |
